Measurements of several laboratories.
Numbered parts are unrelated; each lists some results of a single study.

Set 1
Target: Transcription factor SOX-2, HMG box (SOX2, Homo sapiens, UniProt P48431, residues 19-118)
Sequence of UniProt P48431 (19-118, looked up): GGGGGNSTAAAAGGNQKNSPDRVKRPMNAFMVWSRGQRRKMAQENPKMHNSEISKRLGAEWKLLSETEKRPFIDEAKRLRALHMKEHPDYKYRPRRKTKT
Method: protein-binding microarray
Form: double-stranded DNA, one strand shown
Sample: in vitro
Tested at: not given
Setting: k-mer, scored over probes, only values ≥0.25
Direction: higher = stronger binding
The E-score of `ATTATAA` is reported as 0.372.
With `CTGACAA` the E-score was 0.283.
For `TGTATAA`, the E-score was 0.271.
The E-score of `AAAACAA` is reported as 0.337.
`ATATAAT` has an E-score of 0.364.
With `TAATTCA` the E-score was 0.427.
With `CTATTCA` the E-score was 0.396.
For `AACATTG`, the E-score was 0.283.
The E-score of `GAAACAA` is reported as 0.287.

Set 2
Target: Histone acetyltransferase KAT6A, both winged helices, GST fusion (KAT6A, Homo sapiens, UniProt Q92794, residues 1-181)
Method: protein binding microarray
Form: double-stranded DNA, one strand shown
Sample: in vitro
Tested at: not given
Setting: 8-mer, flanks averaged, mean of 2 arrays, mostly near background
Baseline: not given
Direction: higher = stronger binding
Residues (chain): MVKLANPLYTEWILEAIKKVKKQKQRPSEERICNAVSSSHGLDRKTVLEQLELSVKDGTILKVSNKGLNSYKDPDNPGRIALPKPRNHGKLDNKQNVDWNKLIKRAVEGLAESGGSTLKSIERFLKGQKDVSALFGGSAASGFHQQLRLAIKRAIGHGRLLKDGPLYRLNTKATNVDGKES
The E-score of `CTTACCTA` is reported as -0.238.
The E-score of `CCGTCTTC` is reported as 0.064.
With `CGACTTAA` the E-score was -0.0424.
With `ACTACTAT` the E-score was -0.0975.
`CACGGGGA` has an E-score of 0.143.
The E-score of `CAATGACA` is reported as -0.152.
For `CCAGCTGC`, the E-score was -0.0471.
`GCTCGTAA` gave an E-score of -0.0466.
The E-score of `CAGATGAC` is reported as 0.00742.
`AAATTTGG` gave an E-score of -0.196.

Set 3
Target: RING finger protein unkempt homolog, zinc fingers 1-6, GST-SBP tag (UNK, Homo sapiens, UniProt Q9C0B0, residues 30-357)
Sequence of UniProt Q9C0B0 (30-357, looked up): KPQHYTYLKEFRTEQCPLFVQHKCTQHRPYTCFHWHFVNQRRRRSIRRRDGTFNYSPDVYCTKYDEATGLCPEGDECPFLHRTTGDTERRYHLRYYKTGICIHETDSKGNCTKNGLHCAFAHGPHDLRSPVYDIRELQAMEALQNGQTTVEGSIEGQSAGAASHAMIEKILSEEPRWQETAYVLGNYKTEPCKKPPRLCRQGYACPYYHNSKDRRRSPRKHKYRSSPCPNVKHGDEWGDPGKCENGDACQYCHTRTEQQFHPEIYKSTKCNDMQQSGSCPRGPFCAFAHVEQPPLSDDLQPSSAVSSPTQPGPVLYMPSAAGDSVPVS
Method: RNA Bind-n-Seq
Form: RNA
Sample: in vitro
Tested at: not given
Setting: RNA with constant flanks, human and mouse sites, ends assumed
Baseline: input RNA pool
Direction: higher = stronger binding
For `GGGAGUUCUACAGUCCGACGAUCUAUGAAGUGUAUAGUUCCUCAGCAGGACCUGCGGUCAGACAUAAGUGCCUUAGAGCAAUUCUUAGGAUAAUUUAUUUUGCGGAUGCUGAACUUCUGAAGGAUGUUCUGAAAAAUCAUGCUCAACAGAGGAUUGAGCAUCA`, the bound/input enrichment was 2.04 ratio.
The bound/input enrichment of `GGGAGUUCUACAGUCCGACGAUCGGGAGCUAUGAUCCACAAAAACAACUUAUUAUUGAAGAUCCCUAUUAUGGGAAUGACUCUGACUUUGAGACGGUGUACCAGCAGUGUGUCAGGUGCUGCAGAGCGUUCUUGGAGAAGGCCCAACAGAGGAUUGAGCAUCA` is reported as 0.264 ratio.
For `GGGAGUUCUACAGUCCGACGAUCAACUUCAAGCCGGUAACUGCACACAACAGGCCUGGGAGCGAACUGUGUGAAGGACCUUAAUUCAAAUCAGAGAAAAUCAUUAUUUAUUUUUUUGUAGUAGUAAUGUCAUAUGAAUGUAUCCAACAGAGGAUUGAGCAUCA`, the bound/input enrichment was 3.37 ratio.
`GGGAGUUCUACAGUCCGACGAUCAUACAGUCUCAACAGAUCACCCCCCAGCUUGCGCUUCAAGUUCUACUUCAGUUUGAUAAAGCUAUAAAUUCAGCAUUGGCUCAGAGAGUCAGGAACAGAGUCAAUUUCAGGGGCUCUCUACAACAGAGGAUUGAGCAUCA` has a bound/input enrichment of 0.156 ratio.
For `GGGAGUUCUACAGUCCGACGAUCACAGUUUAGAUAUUCUUUUUAUUUUUUUUCUUUUCCCUCAAUCCUUUUUUAUUUUUAAAAAUAGUUCUUUUGUAAUGUGGUGUUCAAAACGGAAUUGAAAACUGGCACCCCAUCUCUUUGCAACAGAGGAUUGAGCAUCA`, the bound/input enrichment was 208 ratio.
With `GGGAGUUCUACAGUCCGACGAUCAAACAUCUUCUCAAGCAGUCAACGUAGAAUGCUUGGGAAAUAGUCAUAAUUACCCACAUAUAGUAAUUAAUAGAUGGUAAUUAAUUGAUCCUUGAUGUGAUGUUCUUUUGCAUAUUUCCUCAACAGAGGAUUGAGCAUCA` the bound/input enrichment was 1.19 ratio.

Mixed results
The fold induction of `PhoQ, residues 284 288 289 292 302 303 SSTLSG` is reported as 1.77 (PhoP, residues 12 14 15 18 19 LHATL (Escherichia coli, UniProt P23836); Sort-seq, item: YFP reporter; E. coli; PhoQ-PhoP variant library, together with: 10 µM Mg2+; baseline: high Mg2+ state, higher = stronger signaling).

Excerpt of the above (set 3):
For `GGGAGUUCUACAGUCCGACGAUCUAUGAAGUGUAUAGUUCCUCAGCAGGACCUGCGGUCAGACAUAAGUGCCUUAGAGCAAUUCUUAGGAUAAUUUAUUUUGCGGAUGCUGAACUUCUGAAGGAUGUUCUGAAAAAUCAUGCUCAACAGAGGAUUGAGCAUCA`, the bound/input enrichment was 2.04 ratio.
The bound/input enrichment of `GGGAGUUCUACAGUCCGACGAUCGGGAGCUAUGAUCCACAAAAACAACUUAUUAUUGAAGAUCCCUAUUAUGGGAAUGACUCUGACUUUGAGACGGUGUACCAGCAGUGUGUCAGGUGCUGCAGAGCGUUCUUGGAGAAGGCCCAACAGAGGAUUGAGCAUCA` is reported as 0.264 ratio.
For `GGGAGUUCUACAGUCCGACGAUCAACUUCAAGCCGGUAACUGCACACAACAGGCCUGGGAGCGAACUGUGUGAAGGACCUUAAUUCAAAUCAGAGAAAAUCAUUAUUUAUUUUUUUGUAGUAGUAAUGUCAUAUGAAUGUAUCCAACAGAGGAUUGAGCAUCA`, the bound/input enrichment was 3.37 ratio.
With `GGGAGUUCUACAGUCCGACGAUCAAACAUCUUCUCAAGCAGUCAACGUAGAAUGCUUGGGAAAUAGUCAUAAUUACCCACAUAUAGUAAUUAAUAGAUGGUAAUUAAUUGAUCCUUGAUGUGAUGUUCUUUUGCAUAUUUCCUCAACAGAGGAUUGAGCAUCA` the bound/input enrichment was 1.19 ratio.
